# Published values gathered from unrelated publications.
# Every numbered part comes from another study and shows a few of its results, in no order. Changes are numbered by the printed parent chain.

# Set 1 — target: CCND1, cyclin fold, Cln2 fusion (human); method: yeast growth competition, sequencing; medium: yeast; notes: strong parent motif; relative to: not given; reading: higher = stronger binding; parent: viral docking peptide; KGVKRKLFAEDSS
Substitution,normalised enrichment score
A9M,1.23
F8R,0.0101
K6Y,-0.0926
E10V,0.142
G2L,0.838
E10H,0.0684
A9R,0.786
F8C,0.165
K4R,2.22
R5W,0.261
A9L,0.589
V3P,2.66
L7I,0.131
V3F,0.295
A9S,1.28

# Set 2 — read-out: binding; method: phage display NGS; form: peptide; relative to: input library
# Target: UDP-N-acetylglucosamine--peptide N-acetylglucosaminyltransferase 110 kDa subunit (OGT, Homo sapiens, UniProt O15294)
# Chain of UniProt O15294 (whole entry, looked up): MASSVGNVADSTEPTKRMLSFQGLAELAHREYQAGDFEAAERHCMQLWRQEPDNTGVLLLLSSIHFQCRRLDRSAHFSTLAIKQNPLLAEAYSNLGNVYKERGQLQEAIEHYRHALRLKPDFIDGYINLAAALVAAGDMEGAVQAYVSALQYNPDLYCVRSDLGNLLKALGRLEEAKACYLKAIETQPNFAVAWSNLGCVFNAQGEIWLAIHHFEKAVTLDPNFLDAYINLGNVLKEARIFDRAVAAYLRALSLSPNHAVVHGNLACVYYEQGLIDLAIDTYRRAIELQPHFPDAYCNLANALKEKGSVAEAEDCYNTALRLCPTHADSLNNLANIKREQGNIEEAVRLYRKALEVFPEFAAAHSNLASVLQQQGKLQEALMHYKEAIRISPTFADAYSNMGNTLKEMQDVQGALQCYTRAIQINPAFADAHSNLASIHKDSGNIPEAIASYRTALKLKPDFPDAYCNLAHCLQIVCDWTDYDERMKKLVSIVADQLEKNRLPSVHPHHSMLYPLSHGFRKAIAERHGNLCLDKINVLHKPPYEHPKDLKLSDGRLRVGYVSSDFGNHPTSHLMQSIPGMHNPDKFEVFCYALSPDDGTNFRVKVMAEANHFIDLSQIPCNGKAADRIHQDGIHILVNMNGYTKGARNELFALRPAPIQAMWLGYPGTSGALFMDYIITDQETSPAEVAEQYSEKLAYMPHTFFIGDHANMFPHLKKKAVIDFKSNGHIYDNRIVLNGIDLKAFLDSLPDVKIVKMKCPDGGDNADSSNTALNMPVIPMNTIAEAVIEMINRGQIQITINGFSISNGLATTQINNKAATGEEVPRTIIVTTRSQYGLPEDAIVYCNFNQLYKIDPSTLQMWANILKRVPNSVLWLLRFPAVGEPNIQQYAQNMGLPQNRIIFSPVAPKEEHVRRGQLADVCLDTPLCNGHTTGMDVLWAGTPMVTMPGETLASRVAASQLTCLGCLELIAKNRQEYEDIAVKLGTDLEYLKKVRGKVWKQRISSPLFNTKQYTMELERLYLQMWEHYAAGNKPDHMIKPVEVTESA
Molecule,minimum log2 enrichment ratio
ATRYDMHHPHLHPSN,1.94
QWQYNLMPYYSINYK,0.978
VITGGPYYPAYQMSY,2.68
DHHYHPHTWTWFTAP,1.94
YRLYTPQYQIQWSTN,5.05
GRYSYDPQYTIDYKR,1.44
YYHTPRHDQMHVYVR,2.5
NAKFFPKYQIGMTP,1.98
QWKPRHDHIHYYEYH,3
RYYEPVYQIVATNSN,2.66
MPYFPPAYKIQTAYA,3.93
FVNTWHYPKTANYHA,1.7
VLWPPYTYHHNHHRI,5.81
RPLEQSHHHIFFSKR,1.03
HDQRHHQRETKGEVH,2.13
QPEWRPQYQIRITSM,2.43
HRDLHFHTSWNYHRI,1.86
TFMPQTHHRPHHSNH,3.33
TDYMFTQHHWHKVQH,3.22
HHPAHRTPMFATTF,1.03
ATWHPYHHGHEYIV,3.15
QPHHQHYFGVNHTQR,3.19
EAAATFPPMYQLQVV,3.83
HYTMEHNWAHQEQHH,2.62
SLSHHHIQEHGAYQH,2.54

# Set 3 — target: inorganic phosphate, free oxyanion; method: microfluidic competitive inhibition; medium: in vitro, cell-free expressed; concentration: not given; reading: lower = stronger binding
# Notes: derived from inhibition constants, unchanged parent 615000 nM
# Parent: PafA, mature enzyme, eGFP fusion (Elizabethkingia meningoseptica, UniProt Q9KJX5); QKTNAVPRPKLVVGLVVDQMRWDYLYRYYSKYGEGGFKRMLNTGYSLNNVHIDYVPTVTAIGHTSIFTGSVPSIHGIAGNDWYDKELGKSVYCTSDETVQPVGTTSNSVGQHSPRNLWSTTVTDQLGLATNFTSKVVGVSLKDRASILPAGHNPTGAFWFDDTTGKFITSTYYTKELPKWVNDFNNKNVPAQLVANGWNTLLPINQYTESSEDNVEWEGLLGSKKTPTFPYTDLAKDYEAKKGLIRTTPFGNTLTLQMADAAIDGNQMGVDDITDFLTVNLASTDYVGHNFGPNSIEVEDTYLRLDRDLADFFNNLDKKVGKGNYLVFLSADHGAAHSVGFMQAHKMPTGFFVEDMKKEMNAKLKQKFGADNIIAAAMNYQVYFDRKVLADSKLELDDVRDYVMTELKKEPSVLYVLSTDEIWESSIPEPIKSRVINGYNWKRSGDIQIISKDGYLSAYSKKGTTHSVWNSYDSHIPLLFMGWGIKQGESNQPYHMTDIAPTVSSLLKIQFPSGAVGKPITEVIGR
Substitution,phosphate dissociation constant
P249V,573 µM
T94G,< 589 µM
A362V,689 µM
V58G,290 µM
S70V,474 µM
D311V,602 µM
I431G,285 µM
N116V,696 µM
A458G,612 µM
A60G,443 µM
V71G,346 µM
L407V,662 µM
V139A,595 µM
V181G,516 µM
A362G,627 µM
P348G,498 µM
L277V,620 µM
K442V,617 µM
F351V,616 µM
I447V,615 µM
K31V,545 µM
V403G,574 µM
G514A,447 µM
K319G,507 µM
L141V,722 µM

# Other studies, line by line — method: cross-linking MS
Substance,partner,medium,notes,together with,quantity,result
"MDH2 (Homo sapiens, UniProt P40926)","HSPE1 (Homo sapiens, UniProt P61604)",cell fractions,,DHSO,cross-linked residues,E232 to E59
"NDUFS6 (Homo sapiens, UniProt O75380)","NDUFA12 (Homo sapiens, UniProt Q9UI09)",cell fractions,,DMTMM,cross-linked residues,E74 to K107
"CLTB (Homo sapiens, UniProt P09497)","CLTC (Homo sapiens, UniProt Q00610)",,hits only,,interaction screen,cross-linked
"RNF40 (Homo sapiens, UniProt O75150)","RNF20 (Homo sapiens, UniProt Q5VTR2)",,hits only,,interaction screen,cross-linked

# Excerpt of the above (set 2):
Molecule,minimum log2 enrichment ratio
VITGGPYYPAYQMSY,2.68
QWQYNLMPYYSINYK,0.978
HYTMEHNWAHQEQHH,2.62
GRYSYDPQYTIDYKR,1.44
FVNTWHYPKTANYHA,1.7
ATWHPYHHGHEYIV,3.15
